Assay results of several laboratories.
A part holds a random share of what one study measured. Positions count from the first letter of the parent shown.

Series 1
Target: ABI1, truncated, D143A, DHFR fusion (Arabidopsis thaliana)
Method: DHFR PCA, deep sequencing
Sample: yeast
Setting: methotrexate growth selection, single substitutions
With: (+)-ABA 0.11 µM
Baseline: wild-type fitted maximum
Reading: higher = stronger binding
Parent: PYL1, truncated, DHFR fusion (Arabidopsis thaliana); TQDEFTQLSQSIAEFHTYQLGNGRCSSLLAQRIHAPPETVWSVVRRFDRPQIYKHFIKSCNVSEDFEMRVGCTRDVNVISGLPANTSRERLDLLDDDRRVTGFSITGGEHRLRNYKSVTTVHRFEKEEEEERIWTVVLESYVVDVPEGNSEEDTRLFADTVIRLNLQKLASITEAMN; partner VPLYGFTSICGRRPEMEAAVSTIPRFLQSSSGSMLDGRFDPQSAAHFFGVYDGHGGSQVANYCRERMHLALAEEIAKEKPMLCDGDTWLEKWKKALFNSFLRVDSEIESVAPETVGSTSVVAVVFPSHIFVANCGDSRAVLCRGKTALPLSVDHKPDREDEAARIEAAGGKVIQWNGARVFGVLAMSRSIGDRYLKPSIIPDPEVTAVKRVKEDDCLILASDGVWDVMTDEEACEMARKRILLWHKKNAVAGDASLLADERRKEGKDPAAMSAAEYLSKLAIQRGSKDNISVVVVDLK
`E125F`: “relative binding score” 26.3%.
For `E130K`, “relative binding score” read 39.9%.
Under “relative binding score”, `D144N` is recorded as 0.0287%.
`E152S`: “relative binding score” 16.2%.
Under “relative binding score”, `G71Y` is recorded as -1.59%.
`R32A` — result for “relative binding score”: 20.3%.
`V136L` — result for “relative binding score”: 25.9%.
`S27P` — result for “relative binding score”: -6.01%.
`L156G`: “relative binding score” 0.369%.
For `S150W`, “relative binding score” read -8.14%.
`A84S` — result for “relative binding score”: 37.1%.
For `S150M`, “relative binding score” read 0.858%.
`N22T`: “relative binding score” 40%.
`T101P` — result for “relative binding score”: -7.01%.
`G23I`: “relative binding score” -0.186%.
`G21S` — result for “relative binding score”: 36.7%.
`V70G`: “relative binding score” 2.17%.
For `D75C`, “relative binding score” read 21.5%.
`I12P`: “relative binding score” 0.118%.

Series 2
Target: UBE2H UBC core domain (UniProt P62256)
Chain of UniProt P62256 (whole entry, looked up): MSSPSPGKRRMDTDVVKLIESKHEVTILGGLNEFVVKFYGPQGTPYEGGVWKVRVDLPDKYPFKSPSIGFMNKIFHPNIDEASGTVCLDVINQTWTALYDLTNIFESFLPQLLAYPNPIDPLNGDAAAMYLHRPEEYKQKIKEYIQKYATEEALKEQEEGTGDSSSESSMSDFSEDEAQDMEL
Method: yeast two-hybrid
Sample: yeast
Setting: mostly zero background
Baseline: not given
Reading: higher = stronger interaction
B1: Ltn1 RING domain (UniProt Q6A009); chain VDKRFEGVEDCMICFSVIHGFNYSLPKKACRTCKKKFHSACLYKWFTSSNKSTCPLCRETFF
B2: RNF181 RING domain (UniProt Q9P0P0); chain VIRGSQAELKCPVCLLEFEEEETAIEMPCHHLFHSSCILPWLSKTNSCPLCRYELPTDDDTY
B3: DTX1 RING domain (UniProt Q86Y01); chain QKVKNPPDEDCTICMERLVTASGYEGVLRHKGVRPELVGRLGRCGHMYHLLCLVAMYSNGNKDGSLQCPTCKAIYGEKTGTQ
B4: RNF24 RING domain (UniProt Q9Y225); chain KVKELNLHELCAVCLEDFKPRDELGICPCKHAFHRKCLIKWLEVRKVCPLCNMPVLQLAQLH
B5: TRIM22 RING domain (UniProt Q8IYM9); chain KEVKMSPQEGQKRDVCEHHGKKLQIFCKEDGKVICWVCELSQEHQGHQTFRINEVVKECQEK
B6: PRKN RING domain (UniProt O60260); chain LIATNSRNITCITCTDVRSPVLVFQCNSRHVICLDCFHLYCVTRLNDRQFVHDPQLGYSLPCVAGCPNSLIKELHH
`B1 (Ltn1 RING domain)` — result for “lacZ reporter activity”: 0.
`B2 (RNF181 RING domain)`: “lacZ reporter activity” 0.
For `B3 (DTX1 RING domain)`, “lacZ reporter activity” read 0.
`QLRRLQEERTCKVCLDRAVSIVFVPCGHLVCAECAPGLQLCPICRAPVRSRVRTF (BIRC7 RING domain (UniProt Q96CA5))`: “lacZ reporter activity” 0.
For `MDDQGCPRCKTTKYRNPSLKLMVNVCGHTLCESCVDLLFVRGAGNCPECGTPLRKSNFRV (MNAT1 RING domain (UniProt P51948))`, “lacZ reporter activity” read 0.
Under “lacZ reporter activity”, `B4 (RNF24 RING domain)` is recorded as 0.
For `B5 (TRIM22 RING domain)`, “lacZ reporter activity” read 0.
For `B6 (PRKN RING domain)`, “lacZ reporter activity” read 0.

Series 3
Target: RNA binding protein fox-1 homolog 2, RRM domain, GST-SBP tag (RBFOX2, Homo sapiens, UniProt O43251-10, residues 100-194)
Method: RNA Bind-n-Seq
Form: RNA
Sample: in vitro
Concentration: 365 nM
Setting: natural RNA segment, single round, ends assumed
Baseline: no-protein control
Reading: higher = stronger binding
Construct (chain): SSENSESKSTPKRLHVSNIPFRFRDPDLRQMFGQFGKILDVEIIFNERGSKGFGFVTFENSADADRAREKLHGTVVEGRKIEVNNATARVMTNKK
For `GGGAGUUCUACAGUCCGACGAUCGUGUUGUGACACGGGACAACACAUGCCUCUGCAAGUGUGUGUGCCGUGGAUAGCCCCUUGGCUGCUCUCCUGCAGAGAGACAUCGGACAGACCUUAAUUCUUACUCACUGUGGAAUUCUCGGGUGCCAA`, “RBNS enrichment (R)” read 0.221.
`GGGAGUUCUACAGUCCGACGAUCUUUUUGUAUGGAAUUUUUUACAGAAGAGCUAUUUCUGUAUAUGUAAUUAUUUGUGUUUUUUGAAAUGCCUUCCGUAGGUAACCGACAGUCUUAAGCAGUGCUCCACUAACUGGAAUUCUCGGGUGCCAA`: “RBNS enrichment (R)” 0.676.
`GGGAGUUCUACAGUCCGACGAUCCAUCCAGGGUCUUCAGUUUCCCGUGCUUGGCUCUUUGGGGUUCAUGUGUCAUGUUGCUUAUGACCCUAUCUGUGAAGCCGGCUCUGGAGUGACAGAGAGAACCUCAAAAAUGGAAUUCUCGGGUGCCAA`: “RBNS enrichment (R)” 0.296.
`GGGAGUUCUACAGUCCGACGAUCCCACUGGGGCUUGGUGCCCUGUAGGGGUGGGAGGAUGGCUUAAUGCAGACCUUUACCUGUGAGCCCCUAGGCCAAGGCUGUAGCAUUAAAUGACUAUUUAUUCUUCUGCCUGGAAUUCUCGGGUGCCAA`: “RBNS enrichment (R)” 0.303.
`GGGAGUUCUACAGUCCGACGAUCAAUUAUAAUUUUCAGUUUCUCCCCAUGAAGCGCUCUCGUCUGACAUUUGUUUGGAAUCGUGCCACUGCUGGUCUGCGCCAGAUGUACCGUCCUUUCCAAUACGAUUUUCUUGGAAUUCUCGGGUGCCAA` — result for “RBNS enrichment (R)”: 0.248.
`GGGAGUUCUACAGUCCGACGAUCGGAUGCCAGUUGGCAGCUGGAUCCUUCUGUUCACACGACUUGGAACCUUUUGUCCUUUGGGGCUGGGCACCUCCAGACCCUCUGUGUGUCCCUGUCAUCUGGGGAUGGGGUGGAAUUCUCGGGUGCCAA`: “RBNS enrichment (R)” 0.478.

Series 4
Target: Hepatocyte nuclear factor 3-alpha (Foxa1, Mus musculus, UniProt P35582, residues 1-468, full length assumed)
Chain of UniProt P35582 (whole entry, looked up): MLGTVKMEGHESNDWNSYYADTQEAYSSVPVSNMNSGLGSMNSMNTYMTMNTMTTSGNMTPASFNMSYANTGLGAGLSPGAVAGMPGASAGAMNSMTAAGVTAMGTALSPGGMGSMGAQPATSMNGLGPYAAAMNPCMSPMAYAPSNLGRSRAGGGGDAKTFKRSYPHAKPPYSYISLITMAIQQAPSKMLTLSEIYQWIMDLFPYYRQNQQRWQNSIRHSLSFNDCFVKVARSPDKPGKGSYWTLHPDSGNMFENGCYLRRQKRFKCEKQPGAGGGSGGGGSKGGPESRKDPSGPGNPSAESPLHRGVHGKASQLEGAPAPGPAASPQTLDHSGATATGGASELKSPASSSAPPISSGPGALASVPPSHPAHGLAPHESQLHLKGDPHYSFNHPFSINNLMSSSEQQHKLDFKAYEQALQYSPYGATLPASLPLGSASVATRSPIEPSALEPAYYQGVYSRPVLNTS
Method: EMSA with sequencing
Form: double-stranded DNA, one strand shown
Sample: in vitro
Concentration: 10 and 20 nM
Setting: whole designed probe, mean of two concentrations, ends assumed
Baseline: negative control set to 0
Reading: higher = stronger binding
`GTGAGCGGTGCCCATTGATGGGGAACAGGTGAATTGGCTGCTTCCATCCTGGCTTGGAACTTCAGACATAGAAGCCTTGGGACTTTCTCAGGACTTTCTCCAGATCTGACTCATGCTCAGCAAACAAGCATCTCTGTGGATCACGTGACCTTAGCCAGGGATGTTGGTGAAACTGTGTGTTGGTCTAGGTACCTAGCCCATGCTAGGTGCTCATCGAATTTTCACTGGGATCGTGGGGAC`: “normalised bound fraction” 0.0992 ratio.
Under “normalised bound fraction”, `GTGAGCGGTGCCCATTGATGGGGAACTTAAGTATGTTCCACAAGGAATAGTAAGTGATGGCATTCACTGAAATAGGAACTTTATCTAAATGTTTCCATGCATCCTTATTGTTATAATGAGTAAATAATAACAGTGGCCATATTAAAAATAGAATTACCCTTTTTGAATTAAAATTATGTATTTGAATTAGAAAAAAAGCATTTGAAACATGTATTTTTATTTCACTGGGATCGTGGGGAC` is recorded as 0.27 ratio.
`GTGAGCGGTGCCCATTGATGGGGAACCATTAGAGTCAAAGTTGTTAAGGGGAGCTAGTCATAGCTACCACGTGGCCAGGCATGTGGAACCAGACACCAGGCACACATCATGTAACATCATATTTACTTTAAATAATGCTGACAACCTAGTATGAATCATCACACTACTTGAGATATATAGAATAACATTATTACCCAGTAAGTATGTGAACATTCCGATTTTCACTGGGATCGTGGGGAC`: “normalised bound fraction” 0.304 ratio.
`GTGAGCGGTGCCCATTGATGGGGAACCTTGCTTACTGCTAGCACAGCAGTCTGAGATGCATCTGCGAGGCGGCAGCCTGGCTGGGGGAGGGGTATCCGCCATTGCTGAGGCTTGAGTAGGTAATCTAAGCAGCCAGGAAGCTCGAACTGGGCGGAGCCCACCTCAGCTCAACAACGCCTACTGCCTCTAGACTCCACCTCTGTGGGCAGGGCACAGCTGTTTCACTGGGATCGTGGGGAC`: “normalised bound fraction” -0.0538 ratio.
`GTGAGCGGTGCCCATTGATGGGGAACTTTTTGTTAACACTTAGATATGCCTTCCCTTCTCAAGGAGGATTATCCTATAAACTTAACCTTTGAATTAAAGATATTTATTGACTAACAATGTAAACAGGAAAAACTTTAAAATCTCAACAGAAATTATTTTCTCTTTAAATACTTTATTACTTTTTATTTTACAGCAACTCACATTTATGGCTTAATATGGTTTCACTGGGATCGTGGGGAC`: “normalised bound fraction” 0.288 ratio.
